Experimental data pooled from the literature.
Protocols differ between the studies behind these lines.
Organism: Staphylococcus aureus

Compound | effect on | technique | strain | time | temperature | notes | MIC
CCCCCC[N+](C)(C)CCCCCCCCCCOc1cc(OCCCCCCCCCC[N+](C)(C)CCCCCC)cc(OCCCCCCCCCC[N+](C)(C)CCCCCC)c1.[Br-].[Br-].[Br-] | – | – | SH1000 MSSA | – | – | – | 1 µM
CC[C@H](C)[C@H](NC(=O)[C@@H](CCCNC(=N)N)NC(=O)[C@H](CCCNC(=N)N)NC(=O)[C@@H]1CCCN1C(=O)[C@@H]1CCCN1C(=O)[C@H](CCCNC(=N)N)NC(=O)[C@@H]1CCCN1C(=O)[C@H](CCCNC(=N)N)NC(=O)[C@@H]1CCCN1C(=O)[C@H](CC(C)C)NC(=O)[C@H](Cc1ccc(O)cc1)NC(=O)[C@@H]1CCCN1C(=O)[C@@H]1CCCN1C(=O)[C@H](CCCNC(=N)N)NC(=O)[C@H](CC(=O)O)NC(=O)[C@@H](N)C(C)C)C(=O)N[C@@H](Cc1ccc(O)cc1)C(=O)N[C@@H](CC(N)=O)C(=O)N[C@H](CCCNC(=N)N)C(N)=O | – | broth microdilution | DSM 6247 | 18 h | 37 °C | 25% MHB2 | > 128 µg/mL
CC[C@H](C)[C@H](N)C1=N[C@H](C(=O)N[C@@H](CC(C)C)C(=O)N[C@H](CCC(=O)O)C(=O)N[C@H](C(=O)N[C@H]2CCCCNC(=O)[C@H](CC(N)=O)NC(=O)[C@@H](CC(=O)O)NC(=O)[C@H](Cc3c[nH]cn3)NC(=O)[C@@H](Cc3ccccc3)NC(=O)[C@H]([C@@H](C)CC)NC(=O)[C@@H](CCCN)NC2=O)[C@@H](C)CC)CS1 | – | – | USA300 methicillin-resistant | 18 h | 37 °C | 0.3 mM ZnSO4 LB | 2 µg/mL
C/C(=C\c1ccc(O)cc1)C(=O)Nc1ccc(C(=O)N[C@@H](Cc2c[nH]nn2)C(=O)Nc2ccc(C(=O)Nc3ccc(C(=O)Nc4ccc(C(=O)O)cc4)cc3)cc2)cc1 | – | broth microdilution | ciprofloxacin-resistant | – | – | – | 32 µg/mL
CCCCCCCCCCCC[N+](C)(C)CCCCCCCCCCOc1cc(OCCCCCCCCCC[N+](C)(C)CCCCCCCCCCCC)cc(OCCCCCCCCCC[N+](C)(C)CCCCCCCCCCCC)c1.[Br-].[Br-].[Br-] | – | – | CA-MRSA USA300-0114 | – | – | – | 16 µM
CCn1cc(/C=C/c2sc3ccccc3[n+]2CC)c2ccccc21 | – | – | 1466 | – | – | – | 1 µg/mL
CCC(CC)c1cc(CCN2CCCN(S(=O)(=O)c3ccc4ccccc4c3)CC2)nc(-c2ccccn2)n1 | microbial growth | broth dilution | ATCC29213 | – | – | – | > 16 µg/mL
CC[C@H]1OC(=O)[C@H](C)[C@@H](OC(=O)Cc2ccc(OC)cc2)[C@H](C)[C@@H](O[C@@H]2O[C@H](C)C[C@H](N(C)C)[C@H]2O)[C@](C)(OC)C[C@@H](C)C(=O)[C@H](C)[C@@H](O)[C@]1(C)O | – | – | BAA-977 | – | – | – | 8 µg/mL

Excerpt of the above:
Compound | effect on | technique | strain | time | temperature | notes | MIC
CC[C@H](C)[C@H](N)C1=N[C@H](C(=O)N[C@@H](CC(C)C)C(=O)N[C@H](CCC(=O)O)C(=O)N[C@H](C(=O)N[C@H]2CCCCNC(=O)[C@H](CC(N)=O)NC(=O)[C@@H](CC(=O)O)NC(=O)[C@H](Cc3c[nH]cn3)NC(=O)[C@@H](Cc3ccccc3)NC(=O)[C@H]([C@@H](C)CC)NC(=O)[C@@H](CCCN)NC2=O)[C@@H](C)CC)CS1 | – | – | USA300 methicillin-resistant | 18 h | 37 °C | 0.3 mM ZnSO4 LB | 2 µg/mL
